# Experimental data pooled from the literature.
# Lines come from different studies, so protocols differ.
# Cell line: DU-145
SMILES,test,setting,IC50
COC(=O)[C@@H](NC(=O)[C@@H](NC(=O)OC(C)(C)C)C(C)C)C(C)C,"cell growth or viability, SRB",,5 µM
Brc1ccc(C(c2c[nH]c3ccccc23)c2c[nH]c3ccccc23)cc1,"cell growth or viability, MTT",24 h,9.46 µM
CC(=O)NCCOCCOCCOCCOCCOCCOCCOCCOCCC(=O)N[C@@H](CC(C)C)C(=O)N[C@@H](CC(C)C)C(=O)N[C@@H](CC(C)C)C(=O)N[C@@H](CC(C)C)C(=O)N[C@@H](CCCNC(=N)N)C(=O)N[C@H](C(=O)N[C@@H](CCCCN)C(=O)N[C@@H](CCCNC(=N)N)C(N)=O)C(C)C,"cell growth or viability, MTT",72 h,> 500 µM
O=C1c2cccc[c]2[Au-]([Cl])([Cl])[N+]1=P(c1ccccc1)(c1ccccc1)c1ccccc1,"cell growth or viability, MTT",24 h,40 µM
Cc1ccc(C(C)C)cc1.[Cl-].[Cl-].[Fe+2].[Ru+2].c1cc[cH-]c1.c1ccc(P(=NCc2ccccn2)(c2ccccc2)[c-]2cccc2)cc1,"cell growth or viability, MTT",24 h,148 µM
CCCCOC(=O)C[C@H]1Oc2ccccc2C(=O)[C@]1(C)[N+](=O)[O-],"cell growth or viability, SRB",96 h,21.1 µM
O=[N+]([O-])c1ccc(/N=N/c2ccc(O)c(O)c2)cc1,"cell growth or viability, resazurin",72 h,22.4 µM
O=C1c2ccc(O)cc2OC1(O)Cc1ccc(O)c(O)c1 (stereo not shown),"cell growth or viability, MTT",72 h,> 400 µM
COC(=O)[C@@H]1CCCN1C(=O)[C@H](C)N(C)C(=O)OC(C)(C)C,"cell growth or viability, SRB",,8 µM
C=C1C(=O)OC2C1CCC1(C)CC1CCC1(C)OC21 (stereo not shown),"cell growth or viability, resazurin",,14.8 µM
COc1cc(C(=O)NC2CCC(N3CCN(CC4CCC(C)C4)CC3)CC2)c(F)cc1Nc1ncc2c(n1)N(C1CCCC1(F)F)CC(F)(F)C(=O)N2C (stereo not shown),"cell growth or viability, MTT",72 h,0.00023 µM
COC(=O)[C@@H]1CCCN1C(=O)[C@H](Cc1ccccc1)NC(=O)OC(C)(C)C,"cell growth or viability, SRB",,13 µM
O=C(O)c1ccc([P+]([Au-][Cl])(c2ccccc2)c2ccccc2)cc1,"cell viability, XTT",72 h,39 µM
Cc1ccc(C(C)C)cc1.O=C(N=P(c1ccccc1)(c1ccccc1)c1ccccc1)c1ccccn1.[Cl-].[Cl-].[Ru+2],"cell growth or viability, MTT",24 h,1.55 µM
COC(=O)C[C@H]1Oc2ccccc2C(=O)[C@]1(C)[N+](=O)[O-],"cell growth or viability, SRB",96 h,> 50 µM
O=C(N=P12CN3CN(CN(C3)C1)C2)c1cccc[c]1[Pd][Br].O=S(=O)([O-])c1cccc(P(c2cccc(S(=O)(=O)[O-])c2)c2cccc(S(=O)(=O)[O-])c2)c1.[Na+].[Na+].[Na+],"cell growth or viability, MTT",24 h,318 µM
COc1ccc(C(c2c[nH]c3ccc(OC)cc23)c2c[nH]c3ccc(OC)cc23)cc1,"cell growth or viability, MTT",24 h,12 µM
O=C([O][Ti+2][O]C(=O)c1ccc([P+]([Au-][Cl])(c2ccccc2)c2ccccc2)cc1)c1ccc([P+]([Au-][Cl])(c2ccccc2)c2ccccc2)cc1.c1cc[cH-]c1.c1cc[cH-]c1,"cell viability, XTT",72 h,6.6 µM
Cl.[Cl][Ru-4]123([n+]4ccccc4-c4cccc([n+]41)-c1cccc[n+]12)[n+]1ccc(-c2ccccc2)c2ccc4c(-c5ccccc5)cc[n+]3c4c21,cell growth or viability,"72 h, 3D culture",27.3 µM
C[C@]1([N+](=O)[O-])C(=O)c2ccccc2O[C@@H]1CC(=O)O,"cell growth or viability, SRB",96 h,> 50 µM
COc1cc(C(=O)NC2CCC(N3CCC[C@@H](C)C3)CC2)c(F)cc1Nc1ncc2c(n1)N([C@H]1CCCC1(F)F)CC(F)(F)C(=O)N2C (stereo partly shown),"cell growth or viability, MTT",72 h,0.00035 µM
O=C(Nc1ccc(F)cc1)c1ccccc1-n1c(=O)[nH]c2ccccc2c1=O,"cell growth or viability, MTT",24 h,12.8 µM
Cc1ccc(C(c2c[nH]c3ccccc23)c2c[nH]c3ccccc23)cc1,"cell growth or viability, MTT",24 h,15 µM
CN(C)C(=S)[S][Pd][c]1ccccc1C(=O)N=P12CN3CN(CN(C3)C1)C2,"cell growth or viability, MTT",24 h,135 µM
O=C(N=P12CN3CN(CN(C3)C1)C2)c1cccc[c]1[Au]([Cl])[Cl],"cell growth or viability, MTT",24 h,> 125 µM
Cc1ccc(C(C)C)cc1.[Cl-].[Cl-].[Ru+2].c1ccc(P(=Nc2cccc3cccnc23)(c2ccccc2)c2ccccc2)cc1,"cell growth or viability, MTT",24 h,6.6 µM
COc1ccc(OC)c(C(c2c[nH]c3ccccc23)c2c[nH]c3ccccc23)c1,"cell growth or viability, MTT",24 h,16.8 µM
Cc1ccc2c(c1)C(=O)[C@](C)([N+](=O)[O-])[C@@H](CC(=O)NC13CC4CC(CC(C4)C1)C3)O2,"cell growth or viability, SRB",96 h,1.75 µM
CC(=O)[C@@H]1CCCN1C(=O)[C@@H]1CCCN1C(=O)[C@H](Cc1ccccc1)NC(=O)OC(C)(C)C,"cell growth or viability, SRB",,13 µM
CCOC(=O)C[C@H]1Oc2ccccc2C(=O)[C@]1(C)[N+](=O)[O-],"cell growth or viability, SRB",96 h,> 50 µM
O=C1Nc2ccccc2/C1=N/c1ccccc1C(=O)Nc1ccccc1,"cell growth or viability, MTT",24 h,17.4 µM

# Some of these lines once more:
SMILES,test,setting,IC50
C=C1C(=O)OC2C1CCC1(C)CC1CCC1(C)OC21 (stereo not shown),"cell growth or viability, resazurin",,14.8 µM
COc1cc(C(=O)NC2CCC(N3CCN(CC4CCC(C)C4)CC3)CC2)c(F)cc1Nc1ncc2c(n1)N(C1CCCC1(F)F)CC(F)(F)C(=O)N2C (stereo not shown),"cell growth or viability, MTT",72 h,0.00023 µM
COC(=O)[C@@H]1CCCN1C(=O)[C@H](Cc1ccccc1)NC(=O)OC(C)(C)C,"cell growth or viability, SRB",,13 µM
O=C(O)c1ccc([P+]([Au-][Cl])(c2ccccc2)c2ccccc2)cc1,"cell viability, XTT",72 h,39 µM
